Measured values pooled from the literature.
Each numbered part is a random draw from the data of one study; scales do not carry over between parts. Substitutions count along the parent as printed.

Sample 1 — technique: RNA Bind-n-Seq; form: RNA; matrix: in vitro; tested at: not given; baseline: input RNA pool; reading: higher = stronger binding
Target: RING finger protein unkempt homolog, zinc fingers 1-6, GST-SBP tag (UNK, Homo sapiens, UniProt Q9C0B0, residues 30-357)
Setting: RNA with constant flanks, human-mouse chimeric sites, ends assumed
Constant ends, left off below: GGGAGUUCUACAGUCCGACGAUC … CAACAGAGGAUUGAGCAUCA
Residues (chain): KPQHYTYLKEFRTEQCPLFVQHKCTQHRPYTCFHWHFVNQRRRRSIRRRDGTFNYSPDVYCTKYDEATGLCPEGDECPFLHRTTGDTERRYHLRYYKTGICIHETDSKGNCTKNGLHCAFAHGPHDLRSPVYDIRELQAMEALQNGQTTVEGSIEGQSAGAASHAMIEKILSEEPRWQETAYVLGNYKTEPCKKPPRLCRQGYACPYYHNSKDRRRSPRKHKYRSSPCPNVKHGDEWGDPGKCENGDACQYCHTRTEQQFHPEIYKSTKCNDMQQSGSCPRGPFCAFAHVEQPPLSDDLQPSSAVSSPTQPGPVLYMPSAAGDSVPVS
Strand	bound/input enrichment
CUGAAAAACACAGAUAUCAAAGUUGUUGACUUUGGAAGUGCAACAUAUGAUGAUGAACAUCACAGUACUUUGGUGUCUACCCGGCACUACAGGGCUCCCGAGGUCAUUUUGGCUUUAGGU	0.372 ratio
AGCACAACCCCAGCAAAGCUAAGAAAUCCUUGUACAAGUGAACAAAACUGCACCAGCCCAUUUAGCUACAAAAAUGUGCUUAGUCUUACUAAUAAAGGAGAGUUUUUCAAUGAACUUGUU	0.441 ratio
CGCUGGCCCAAGCUGAUGGACUCUGAUGGCCUCCAUCUCUCAGGCACGUUUGCCUUCUCUUAGUCCCUGUUUUCGGGAUGUUAUGAACAGUAUCAUGGUGGUUUGAAAGCACCAGCUUUG	0.123 ratio
UCCUGGUCGUGUCCCAGUGCAGGACGAUGUGAACAAAAACUCAAAGCGGACCCUCUAUUGUAGUUCUUGAUUCUCGAAAUGUGCUAUUAUUGUUUGUCUUUUUUUUUUUUUUUUUAAAGA	1.29 ratio
CUCAGAGAUGUGGCAUAUCAGUAUGUGAAAAAGGGGUCUCGUAUAUUUGUGGAAGGGAAAGUGGACUAUGGCGAGUACAUGGAUAAAAACAAUGUGAGGCGGCAAGCAACAACAAUCAUA	0.35 ratio
GAAACUAUUCCUAAAGAGGAGAAAGCUGAGAAGGAUGCUCGGAGACCAUCUCUUGAGAAACAUAGAAAAGAAAAGCCUUUUAAAACCGGGAGAGGCAGAAUUUCCACUCCUGAAAGAAAA	0.277 ratio
GUACUGCAGCAGCAGGGAAAACUGCAGGAAGCUCUGAUGCACUAUAAGGAGGCUAUUCGAAUUAGUCCUACCUUUGCUGAUGCCUACUCUAAUAUGGGAAACACUCUAAAGGAGAUGCAG	0.139 ratio
AGGAGGAGGUUAAAGGGUGAGAGUGGGGUGGAAGACUGUGUCAUGGCUCUGGAGACACUGUUCAGUGUUCUGCUUUCUCUGUGCAGACUUAUGGCUCCUUACACGCCCUUUCUGACUGAG	0.0714 ratio
ACUCUUGACUCUUUCCAUCCUCUUCCUUUCCCUCUUGAUCUUCAAGGCCAUGAAUCCCAAAAUAACAGUCUUAGUGGCUAGCACCCAAACAGAGGUGGAAUAAAUCCAAACUGACAACUC	0.79 ratio
UUAAUCCCCUUCGUUGCUCCCCCACUUCUCAUGGUAAUAACAAAGUCUUAUAUCCCCGUCCUAGCUUUCACUCAGAUGGCUUAUGGAGCCGGUUUCCUAGCUUUCUUGGGAGGGAUCAGA	0.451 ratio
GCGGCAGAAUCAUGGAGGACAUAAUGCAGCUCCCCAAGUCGCGCAUCAACGCCAGCAUGUUACCACAGUAUAUCGACCGGCCCGUGUGCUUCGUAGGGAAGCUGGAAAAGAUUCAUCCCA	0.0863 ratio

Sample 2 — technique: protein binding microarray; form: double-stranded DNA, one strand shown; matrix: in vitro; tested at: not given; baseline: not given; reading: higher = stronger binding
Target: Histone acetyltransferase KAT6A, winged helix 2, GST fusion (KAT6A, Homo sapiens, UniProt Q92794, residues 85-181)
Setting: 8-mer, flanks averaged, mean of 2 arrays, mostly near background
Target sequence (chain): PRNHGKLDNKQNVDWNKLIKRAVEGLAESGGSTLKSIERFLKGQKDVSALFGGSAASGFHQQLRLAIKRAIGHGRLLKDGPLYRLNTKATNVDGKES
Strand	E-score
AAACAGCT	0.0427
GCTATCGA	-0.00149
CTGGATGA	-0.0357
AAGTGTGG	-0.0174
AAGAGTGC	-0.177
GTTGCAGA	0.0112
AAGGAGTA	-0.19
ACTGACCC	-0.0227
AGTCACAG	0.0307
CCCTTGGC	0.0927
ATCATAAG	-0.0594
AGGGCTGG	0.0946
AACGCGCT	0.00942
CTCCATGC	-0.0201
GAATCTGA	-0.0153
CAAACTGC	0.0394
ACCATATA	-0.0112
AATTATAA	0.0852
AAGGTGCG	-0.038
GGGTGTTA	-0.0741
AGTGGTTA	-0.172
CATTATCA	0.0637

Sample 3 — target: CREB3L4, bZIP domain (human); technique: DHFR protein complementation; matrix: yeast; baseline: wild-type JUN-FOS pair; reading: higher = stronger binding
Setting: single substitutions, most at no-binding floor
Starting sequence: JUN, bZIP domain (human); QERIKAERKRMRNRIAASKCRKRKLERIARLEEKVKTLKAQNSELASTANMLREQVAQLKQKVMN; partner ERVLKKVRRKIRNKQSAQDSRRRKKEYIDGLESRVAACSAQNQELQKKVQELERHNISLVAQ
Substitution	binding fitness [natural log]
A57Q	-1.52
E44S	-1.17
A49V	-1.24
K34M	-1.53
Q41I	-1.34
V56N	-1.46
N42V	-1.34
S47K	-1.52
V56G	-1.49
L52S	-1.52
V35H	-1.42
E54P	-1.42
N42I	-1.24
R53L	-1.59
E54A	-1.21
S47V	-1.3
S47G	-1.49

Sample 4 — technique: protein-binding microarray; form: double-stranded DNA, one strand shown; matrix: in vitro; tested at: not given; reading: higher = stronger binding
Target: Max dimerization protein 1, bHLH-zipper, MAX partner unstated (MXD1, Homo sapiens, UniProt Q05195, residues 56-136)
Setting: k-mer, scored over probes, only values ≥0.25
Target sequence (chain): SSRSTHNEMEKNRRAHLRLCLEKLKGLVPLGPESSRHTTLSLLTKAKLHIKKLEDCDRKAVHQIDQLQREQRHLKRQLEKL
Strand	E-score
ATCATGTG	0.444
AACCAACG	0.254
CCCACTAC	0.279
CCATGCCG	0.368
ATACATGC	0.294
GACACGAC	0.296
CGCACGCG	0.398
ATGCGCTC	0.278
ATGTCGAC	0.251
CCGGCCCC	0.285
CACACATG	0.412
CGTGCGCC	0.355
ACGCAACA	0.267
ACACGGGG	0.402
CCCTCCCC	0.327
GGGGCACA	0.284
CCCACGGC	0.251
AGGCCATG	0.271
GACGTGGA	0.266
GGGGCGAA	0.255
ATGAGGAG	0.254
AAGCATGC	0.399
GCCATGCA	0.287
CACGGGAC	0.263
CCCGCCTC	0.331

Sample 5 — target: CCNA1, cyclin fold, Cln2 fusion (human); technique: yeast growth competition, sequencing; matrix: yeast; setting: weak parent motif; baseline: not given; reading: higher = stronger binding
Starting sequence: GMNC docking peptide (human); KNAKRNLSSEFAN
Substitution	normalised enrichment score
S8V	0.465
E10M	0.0578
S9I	0.836
K4F	0.00276
E10Q	0.825
S8Y	0.673
K4A	0.0295
L7I	1.64
E10H	0.0699
E10L	-0.214
A12R	0.582
A3C	0.633
K4D	0.0356
R5K	0.243
S9W	0.489
E10V	0.177
A12W	0.525
F11R	-0.128
R5M	0.419

Sample 6 — technique: protein-binding microarray; form: double-stranded DNA, one strand shown; matrix: in vitro; tested at: 0.8 µM; setting: whole 60-bp probe, no competitor; reading: higher = stronger binding; constant ends, left off below: … GTCTTGATTCGCTTGACGCTGCTG
Target: Centromere-binding protein 1, full length, N-terminal tag (CBF1, Saccharomyces cerevisiae, UniProt P17106, residues 1-351)
Sequence of UniProt P17106 (whole entry, looked up): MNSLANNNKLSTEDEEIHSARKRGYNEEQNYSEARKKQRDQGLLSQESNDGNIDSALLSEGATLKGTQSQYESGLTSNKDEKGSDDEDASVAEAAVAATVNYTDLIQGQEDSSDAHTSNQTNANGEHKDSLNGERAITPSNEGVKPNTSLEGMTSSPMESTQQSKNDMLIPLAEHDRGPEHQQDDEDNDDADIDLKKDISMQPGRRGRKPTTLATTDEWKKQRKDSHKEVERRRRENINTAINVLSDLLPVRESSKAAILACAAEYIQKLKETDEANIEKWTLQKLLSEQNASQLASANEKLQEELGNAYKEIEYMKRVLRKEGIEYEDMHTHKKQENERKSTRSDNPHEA
Strand	fluorescence intensity [a.u.]
CTATTTTACGCTACGCACGTCATCGATATATACTTC	524
CTAGAGCGCAGTTAGTAGGTGATCGGGAAATTGTTC	511
GAAAGTTGACGAATCAACGTGATAATTGTGTAATAG	820
CTATCAACAAAATGGGGCGTGATGAAGAAAAAATTC	950
GAAAATGACGCCGGTCACACGCGGGTGCCTGATTAG	568
CCTAACTACTATAGTCACACAGCATAGCTTCGTACA	531
CTATACCACCGCCACTAGGTGACGCTAACCTACTTC	497
CTAAAAGATAGGGCTAACATCACAAGATTCCCATTC	526
GAAGATATCGCACCGCACGTTTAGCCTGATCAATAG	596
GAATTTATCTACTACCACGAGTTTATTACGGCGTAG	554
GAATTACTCAAATGTGTCACAATTTCAACTTCTTAG	540
CTAGTCAGCGATGGTGACGTAAACGACTTTTTGTTC	484
TGTACGAAGCTATGTCACAAGGTTATAGTAGTTAGG	714
CTACCAAAATACATCCTCGTGGCATCCCAGGTTTTC	579
GAAAGACGGCAAGGTCCCATCAGCTGTACAAAATAG	594
CTATCTATCAAACAACATGTGAAGATAACACAATTC	650
CTAAATGACATATGTCACGTGCTTTAGGGCTTGTTC	16500
GAAACATAACAGCATCATGCAAGCCTTTAAAAATAG	515
GAATAAGAATTGTTTAACGTGCTTTTATTAATGTAG	553
CTAGAAAGCGCACATGTGATATCTCGCAATTTCTTC	1680

Other studies, line by line
Substance	target	assay	system	conditions	scale	quantity	result
PhoQ, residues 284 288 289 292 302 303 SLCLSL	PhoP, residues 12 14 15 18 19 QYFSL (Escherichia coli, UniProt P23836)	Sort-seq, item: YFP reporter	E. coli	PhoQ-PhoP variant library, together with: 10 µM Mg2+	baseline: high Mg2+ state, higher = stronger signaling	fold induction	6.99

A few entries again (sample 6):
Strand	fluorescence intensity [a.u.]
CTAGTCAGCGATGGTGACGTAAACGACTTTTTGTTC	484
CTAAAAGATAGGGCTAACATCACAAGATTCCCATTC	526
CTATTTTACGCTACGCACGTCATCGATATATACTTC	524
GAAAGACGGCAAGGTCCCATCAGCTGTACAAAATAG	594
CTACCAAAATACATCCTCGTGGCATCCCAGGTTTTC	579
CTATACCACCGCCACTAGGTGACGCTAACCTACTTC	497
GAATTACTCAAATGTGTCACAATTTCAACTTCTTAG	540
CTATCAACAAAATGGGGCGTGATGAAGAAAAAATTC	950
GAATAAGAATTGTTTAACGTGCTTTTATTAATGTAG	553
CTAGAAAGCGCACATGTGATATCTCGCAATTTCTTC	1680
CTAAATGACATATGTCACGTGCTTTAGGGCTTGTTC	16500
GAAACATAACAGCATCATGCAAGCCTTTAAAAATAG	515
TGTACGAAGCTATGTCACAAGGTTATAGTAGTTAGG	714
GAATTTATCTACTACCACGAGTTTATTACGGCGTAG	554
GAAAGTTGACGAATCAACGTGATAATTGTGTAATAG	820
CCTAACTACTATAGTCACACAGCATAGCTTCGTACA	531
